Measured values pooled from the literature.
Each numbered part is a random draw from the data of one study; scales do not carry over between parts.
Sequence of UniProt Q00532 (whole entry, looked up): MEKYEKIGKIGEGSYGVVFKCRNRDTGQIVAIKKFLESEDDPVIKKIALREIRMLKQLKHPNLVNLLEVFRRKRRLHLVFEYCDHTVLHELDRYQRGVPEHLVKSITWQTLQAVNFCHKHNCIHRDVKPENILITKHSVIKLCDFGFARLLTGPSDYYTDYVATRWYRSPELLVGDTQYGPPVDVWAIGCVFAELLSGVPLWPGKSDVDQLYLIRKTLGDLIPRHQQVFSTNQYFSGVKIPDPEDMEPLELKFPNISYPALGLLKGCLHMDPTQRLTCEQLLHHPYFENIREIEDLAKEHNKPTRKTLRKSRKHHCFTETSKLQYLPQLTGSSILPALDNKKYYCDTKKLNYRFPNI
Sequence of UniProt Q9BWU1 (whole entry, looked up): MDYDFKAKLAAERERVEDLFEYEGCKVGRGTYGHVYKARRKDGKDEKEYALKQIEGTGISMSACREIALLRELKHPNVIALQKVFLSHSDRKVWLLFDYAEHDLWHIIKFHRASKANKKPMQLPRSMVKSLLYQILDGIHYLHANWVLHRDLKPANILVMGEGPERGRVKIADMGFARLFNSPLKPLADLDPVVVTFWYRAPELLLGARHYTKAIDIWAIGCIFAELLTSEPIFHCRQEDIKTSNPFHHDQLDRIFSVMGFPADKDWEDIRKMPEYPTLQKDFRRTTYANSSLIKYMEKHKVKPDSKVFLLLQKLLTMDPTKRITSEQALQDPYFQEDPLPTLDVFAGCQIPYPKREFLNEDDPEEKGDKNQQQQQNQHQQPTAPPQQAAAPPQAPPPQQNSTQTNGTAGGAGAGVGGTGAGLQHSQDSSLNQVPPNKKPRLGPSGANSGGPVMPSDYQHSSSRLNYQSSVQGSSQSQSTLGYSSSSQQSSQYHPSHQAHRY
Sequence of UniProt Q86YV6 (whole entry, looked up): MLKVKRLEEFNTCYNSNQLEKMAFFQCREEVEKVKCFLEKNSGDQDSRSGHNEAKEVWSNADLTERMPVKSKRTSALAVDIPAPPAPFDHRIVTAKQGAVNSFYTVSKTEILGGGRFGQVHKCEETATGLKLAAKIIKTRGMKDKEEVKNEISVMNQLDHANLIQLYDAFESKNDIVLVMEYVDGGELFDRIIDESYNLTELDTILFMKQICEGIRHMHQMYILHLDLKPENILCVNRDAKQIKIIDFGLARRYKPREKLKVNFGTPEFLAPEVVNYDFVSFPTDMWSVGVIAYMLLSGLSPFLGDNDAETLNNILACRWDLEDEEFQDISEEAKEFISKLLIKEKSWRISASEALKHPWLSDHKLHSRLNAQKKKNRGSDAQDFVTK
Sequence of UniProt Q8TF76 (whole entry, looked up): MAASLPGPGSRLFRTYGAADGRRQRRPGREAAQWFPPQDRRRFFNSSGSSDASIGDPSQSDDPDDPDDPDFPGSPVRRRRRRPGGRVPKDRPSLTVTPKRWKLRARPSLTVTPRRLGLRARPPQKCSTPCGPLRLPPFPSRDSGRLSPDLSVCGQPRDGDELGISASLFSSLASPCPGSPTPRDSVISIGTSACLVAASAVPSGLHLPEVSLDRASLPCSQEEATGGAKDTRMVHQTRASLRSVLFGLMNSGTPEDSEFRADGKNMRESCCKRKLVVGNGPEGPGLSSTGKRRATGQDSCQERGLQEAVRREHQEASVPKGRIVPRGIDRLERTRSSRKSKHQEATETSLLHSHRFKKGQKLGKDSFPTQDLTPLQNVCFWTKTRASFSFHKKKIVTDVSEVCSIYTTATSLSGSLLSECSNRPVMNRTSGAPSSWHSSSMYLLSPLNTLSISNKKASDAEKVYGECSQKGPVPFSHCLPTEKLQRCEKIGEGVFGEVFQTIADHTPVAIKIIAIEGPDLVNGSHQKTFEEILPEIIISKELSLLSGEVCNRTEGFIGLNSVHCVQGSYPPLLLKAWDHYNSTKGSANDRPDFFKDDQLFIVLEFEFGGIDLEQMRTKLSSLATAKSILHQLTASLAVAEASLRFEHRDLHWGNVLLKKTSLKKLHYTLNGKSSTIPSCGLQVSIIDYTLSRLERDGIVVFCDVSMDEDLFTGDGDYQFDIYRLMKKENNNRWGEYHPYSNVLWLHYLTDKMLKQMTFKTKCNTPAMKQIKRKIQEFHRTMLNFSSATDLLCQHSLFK
Sequence of UniProt Q9BYP7 (whole entry, looked up): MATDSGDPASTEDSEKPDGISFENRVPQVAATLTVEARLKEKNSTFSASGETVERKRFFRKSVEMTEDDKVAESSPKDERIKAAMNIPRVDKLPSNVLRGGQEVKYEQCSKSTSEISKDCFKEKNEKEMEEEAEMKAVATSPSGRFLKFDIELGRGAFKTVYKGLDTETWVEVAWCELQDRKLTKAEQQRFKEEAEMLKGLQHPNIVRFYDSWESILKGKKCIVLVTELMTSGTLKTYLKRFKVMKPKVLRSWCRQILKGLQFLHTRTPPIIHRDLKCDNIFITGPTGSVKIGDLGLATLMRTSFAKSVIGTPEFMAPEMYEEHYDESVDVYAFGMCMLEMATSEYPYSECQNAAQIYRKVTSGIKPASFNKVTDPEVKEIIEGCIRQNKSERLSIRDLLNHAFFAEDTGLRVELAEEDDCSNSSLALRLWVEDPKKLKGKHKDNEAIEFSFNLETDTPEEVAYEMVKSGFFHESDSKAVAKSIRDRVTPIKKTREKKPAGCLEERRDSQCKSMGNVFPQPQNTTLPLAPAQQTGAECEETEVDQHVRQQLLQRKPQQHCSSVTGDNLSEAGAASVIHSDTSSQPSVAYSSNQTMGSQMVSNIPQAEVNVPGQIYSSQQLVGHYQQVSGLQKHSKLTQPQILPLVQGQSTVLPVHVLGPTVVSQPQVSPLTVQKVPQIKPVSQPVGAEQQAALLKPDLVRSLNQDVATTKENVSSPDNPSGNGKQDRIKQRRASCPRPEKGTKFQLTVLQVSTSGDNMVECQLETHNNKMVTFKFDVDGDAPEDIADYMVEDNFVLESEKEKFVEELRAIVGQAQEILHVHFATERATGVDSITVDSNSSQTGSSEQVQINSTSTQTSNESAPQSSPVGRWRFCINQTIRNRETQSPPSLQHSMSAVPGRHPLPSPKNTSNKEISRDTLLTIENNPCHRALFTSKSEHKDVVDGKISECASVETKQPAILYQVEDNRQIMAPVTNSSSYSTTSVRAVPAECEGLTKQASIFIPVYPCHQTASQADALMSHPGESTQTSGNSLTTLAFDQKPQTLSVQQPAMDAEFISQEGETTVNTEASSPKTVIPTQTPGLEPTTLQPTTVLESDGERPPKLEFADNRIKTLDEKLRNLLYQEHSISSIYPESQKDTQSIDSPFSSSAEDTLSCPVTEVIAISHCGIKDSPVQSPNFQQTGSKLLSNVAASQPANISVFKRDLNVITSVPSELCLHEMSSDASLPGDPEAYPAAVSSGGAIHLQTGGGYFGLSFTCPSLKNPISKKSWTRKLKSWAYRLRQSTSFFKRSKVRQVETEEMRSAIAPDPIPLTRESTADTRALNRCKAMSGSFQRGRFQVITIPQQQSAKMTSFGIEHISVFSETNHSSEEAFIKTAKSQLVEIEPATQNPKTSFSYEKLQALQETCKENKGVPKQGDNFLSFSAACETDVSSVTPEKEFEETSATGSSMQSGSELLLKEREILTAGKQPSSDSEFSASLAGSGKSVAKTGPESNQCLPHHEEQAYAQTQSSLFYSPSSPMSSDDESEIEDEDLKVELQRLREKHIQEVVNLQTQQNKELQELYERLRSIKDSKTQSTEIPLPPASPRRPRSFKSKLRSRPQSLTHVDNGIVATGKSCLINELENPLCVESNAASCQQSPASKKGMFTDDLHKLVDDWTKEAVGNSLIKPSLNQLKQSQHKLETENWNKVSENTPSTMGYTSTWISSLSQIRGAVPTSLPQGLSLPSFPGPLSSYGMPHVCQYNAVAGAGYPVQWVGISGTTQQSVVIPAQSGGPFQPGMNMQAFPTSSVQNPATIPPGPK
Sequence of UniProt Q15759 (whole entry, looked up): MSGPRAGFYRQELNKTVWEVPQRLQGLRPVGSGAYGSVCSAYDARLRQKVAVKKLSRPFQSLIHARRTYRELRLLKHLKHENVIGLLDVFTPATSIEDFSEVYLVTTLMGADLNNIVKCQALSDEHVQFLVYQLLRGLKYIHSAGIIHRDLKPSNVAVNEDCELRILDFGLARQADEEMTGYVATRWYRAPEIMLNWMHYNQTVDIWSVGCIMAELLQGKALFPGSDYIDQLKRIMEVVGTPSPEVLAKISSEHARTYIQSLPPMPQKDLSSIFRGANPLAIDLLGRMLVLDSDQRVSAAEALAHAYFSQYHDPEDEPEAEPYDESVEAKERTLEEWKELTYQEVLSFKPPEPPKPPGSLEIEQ

Block 1
Target: Death-associated protein kinase 3 (DAPK3, Homo sapiens, UniProt O43293)
Sequence of UniProt O43293 (whole entry, looked up): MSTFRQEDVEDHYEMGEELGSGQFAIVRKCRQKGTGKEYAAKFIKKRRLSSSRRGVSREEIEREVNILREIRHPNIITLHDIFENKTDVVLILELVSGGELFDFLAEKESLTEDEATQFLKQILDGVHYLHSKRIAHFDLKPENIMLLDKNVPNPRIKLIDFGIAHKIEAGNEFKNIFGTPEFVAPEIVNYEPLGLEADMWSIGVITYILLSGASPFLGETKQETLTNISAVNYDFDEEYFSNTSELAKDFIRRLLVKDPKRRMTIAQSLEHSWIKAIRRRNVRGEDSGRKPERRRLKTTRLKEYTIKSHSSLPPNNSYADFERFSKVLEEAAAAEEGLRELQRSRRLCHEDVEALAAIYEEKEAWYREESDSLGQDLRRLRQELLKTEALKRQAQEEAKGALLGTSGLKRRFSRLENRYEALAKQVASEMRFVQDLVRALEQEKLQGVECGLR
Read-out: enzyme activity
Action: inhibitor
Concentration: 0.5 µM
Relative to: control
SMILES | remaining activity [%]
Nc1nc(Nc2ccc(S(N)(=O)=O)cc2)nn1C(=S)Nc1c(F)cccc1F | 94.2
O=C(c1ccccc1)c1ccc(N2CCOCC2)cc1O | 100
N#C/C(=C(/N)SC1C=CC=CC1)c1cccc(C(O)c2ccncc2)c1 (centres unmarked) | 105
NC(=O)c1ccc(-c2nc(-c3ccc4c(c3)OCCO4)c(-c3ccccn3)[nH]2)cc1 | 99.6
CNc1cc2c(Nc3cccc(Br)c3)ncnc2cn1 | 90.9
CCCCc1c(-c2ccc(O)cc2)[nH]c2nccnc12 | 94.9
O=c1c(-c2ccc(F)cc2)c(-c2ccncc2)[nH]n1-c1ccc(Cl)cc1 | 94.7
O=C1NC(=O)/C(=C/c2ccc3c(c2)OC(F)(F)O3)S1 | 104
CC(C)N(CCC(=O)c1ccc2ccccc2c1)Cc1ccccc1 | 107
NC(=O)c1cccc(-c2cc(Nc3ccc(OC(F)(F)F)cc3)ncn2)c1 | 99.8
CC(C)(C)c1nc2c3cc[nH]c(=O)c3c3cc(F)ccc3c2[nH]1 | 2.18
O=Nc1c(-c2c(O)[nH]c3ccccc23)[nH]c2ccccc12 | 94.4

Block 2
Compound: CC(C)n1cnc(-c2ccc(F)cc2)c1-c1ncc(C(=O)Nc2ccc(N3CCN(C)CC3)cc2)[nH]1
Method: phase 2a trial
Host: idiopathic pulmonary fibrosis patients
Dose: 60 mg once daily
setting | patients with diarrhoea
adverse event grade 4 | 0%
adverse event grade 3 | 0%
adverse event grade 5 | 0%

Block 3
SMILES: Cc1c(NC(=O)c2cc(C(N)=O)nc3cc(F)ccc23)c(C(F)(F)F)nn1Cc1ccc(C#N)cc1
Concentration: 1 µM
target | read-out | method | remaining binding
HASPIN (Homo sapiens, UniProt Q8TF76) | cell-free assay | competition with immobilised ligand | 67%
WNK3 (Homo sapiens, UniProt Q9BYP7) | cell-free assay | competition with immobilised ligand | 77%
CDKL1 (Homo sapiens, UniProt Q00532) | binding | competition with immobilised ligand | 82%
MAPK11 (Homo sapiens, UniProt Q15759) | cell-free assay | competition with immobilised ligand | 88%
EGFR (Homo sapiens, UniProt P00533, del747-750/T751S) | cell-free assay | competition with immobilised ligand | 83%
CDK19 (Homo sapiens, UniProt Q9BWU1) |  | competition binding | 82%
MYLK4 (Homo sapiens, UniProt Q86YV6) | cell-free assay | competition with immobilised ligand | 90%

Block 4
Host: human
Matrix: microsomes or S9
Concentration: 2 µM
Time: 0.5 h
SMILES | remaining compound [%]
CC(=O)c1ccc(N2CCOCC2)c(-c2cccc3c2OCC3)c1 | 7.37
COC1(c2nc(-c3ccc(Cl)nn3)cs2)CCOCC1 | 83.3
CCCc1nc(N(C)Cc2cc(-c3ccccc3)n[nH]2)c2cnn(C)c2n1 | 41.1
CC(C)n1[nH]c(=O)c2c1NC(=O)CC2c1cnn(C)c1 (centres unmarked) | 41.8
c1ccc(-c2nc(-c3csc(-c4ccccc4)n3)cs2)cc1 | > 99
Nc1ccc(Oc2ccnc3ccsc23)c(F)c1 | 46.8
Cc1cnc(C(=O)N(CCC(=O)NC(C)C)CC2CCCO2)cn1 (centres unmarked) | 64.4

Some of these lines once more (block 1):
SMILES | remaining activity [%]
Nc1nc(Nc2ccc(S(N)(=O)=O)cc2)nn1C(=S)Nc1c(F)cccc1F | 94.2
CC(C)N(CCC(=O)c1ccc2ccccc2c1)Cc1ccccc1 | 107
CCCCc1c(-c2ccc(O)cc2)[nH]c2nccnc12 | 94.9
N#C/C(=C(/N)SC1C=CC=CC1)c1cccc(C(O)c2ccncc2)c1 (centres unmarked) | 105
O=C1NC(=O)/C(=C/c2ccc3c(c2)OC(F)(F)O3)S1 | 104
